Measurements gathered from unrelated publications.
Numbered parts are unrelated; each lists some results of a single study.
Chain of UniProt Q13523 (whole entry, looked up): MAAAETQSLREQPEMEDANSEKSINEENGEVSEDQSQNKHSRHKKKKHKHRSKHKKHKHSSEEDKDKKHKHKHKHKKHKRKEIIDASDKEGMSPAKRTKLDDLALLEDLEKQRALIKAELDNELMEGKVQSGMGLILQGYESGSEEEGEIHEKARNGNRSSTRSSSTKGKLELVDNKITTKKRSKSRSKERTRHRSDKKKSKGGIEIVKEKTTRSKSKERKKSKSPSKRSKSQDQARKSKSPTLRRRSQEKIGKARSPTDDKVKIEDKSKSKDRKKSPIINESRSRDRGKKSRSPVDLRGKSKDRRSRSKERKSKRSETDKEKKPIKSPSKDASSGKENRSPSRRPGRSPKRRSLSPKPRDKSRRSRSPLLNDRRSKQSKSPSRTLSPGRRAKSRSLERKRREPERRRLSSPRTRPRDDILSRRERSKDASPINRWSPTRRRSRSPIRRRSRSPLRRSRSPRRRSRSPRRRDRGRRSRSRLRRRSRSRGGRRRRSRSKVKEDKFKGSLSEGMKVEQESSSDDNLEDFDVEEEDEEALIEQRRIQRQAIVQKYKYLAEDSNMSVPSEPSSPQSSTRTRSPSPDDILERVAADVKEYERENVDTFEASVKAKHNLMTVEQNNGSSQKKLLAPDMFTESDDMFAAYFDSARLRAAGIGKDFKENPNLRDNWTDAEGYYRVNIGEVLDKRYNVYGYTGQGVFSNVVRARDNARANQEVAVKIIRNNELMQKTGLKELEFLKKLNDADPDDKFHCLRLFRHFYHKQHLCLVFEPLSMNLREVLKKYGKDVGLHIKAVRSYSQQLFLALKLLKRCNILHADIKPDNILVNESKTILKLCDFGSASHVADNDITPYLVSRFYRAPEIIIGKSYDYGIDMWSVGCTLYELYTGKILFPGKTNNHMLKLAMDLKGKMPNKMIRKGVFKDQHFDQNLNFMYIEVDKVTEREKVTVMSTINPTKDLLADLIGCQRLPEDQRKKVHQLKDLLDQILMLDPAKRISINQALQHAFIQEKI
Chain of UniProt P21127 (whole entry, looked up): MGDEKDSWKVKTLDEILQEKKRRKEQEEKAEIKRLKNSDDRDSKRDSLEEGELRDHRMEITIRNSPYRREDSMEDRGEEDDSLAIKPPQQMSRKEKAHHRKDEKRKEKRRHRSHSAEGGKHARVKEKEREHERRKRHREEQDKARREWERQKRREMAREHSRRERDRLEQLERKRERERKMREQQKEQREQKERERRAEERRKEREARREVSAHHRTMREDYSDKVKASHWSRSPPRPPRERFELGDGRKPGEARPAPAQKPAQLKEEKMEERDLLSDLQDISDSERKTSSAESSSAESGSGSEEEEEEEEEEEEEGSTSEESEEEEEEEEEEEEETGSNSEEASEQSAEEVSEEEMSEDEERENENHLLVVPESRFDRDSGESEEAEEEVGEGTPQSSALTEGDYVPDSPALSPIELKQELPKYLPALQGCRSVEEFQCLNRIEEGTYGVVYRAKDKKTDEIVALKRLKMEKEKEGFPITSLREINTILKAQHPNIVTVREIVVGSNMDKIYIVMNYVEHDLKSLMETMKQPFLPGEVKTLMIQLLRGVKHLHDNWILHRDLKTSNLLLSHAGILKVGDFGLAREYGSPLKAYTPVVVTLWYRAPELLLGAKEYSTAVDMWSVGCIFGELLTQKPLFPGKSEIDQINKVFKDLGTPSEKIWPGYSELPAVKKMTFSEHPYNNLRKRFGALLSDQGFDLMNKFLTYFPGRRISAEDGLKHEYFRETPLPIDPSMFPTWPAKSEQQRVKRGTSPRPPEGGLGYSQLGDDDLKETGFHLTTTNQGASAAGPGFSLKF
Chain of UniProt P08069 (whole entry, looked up): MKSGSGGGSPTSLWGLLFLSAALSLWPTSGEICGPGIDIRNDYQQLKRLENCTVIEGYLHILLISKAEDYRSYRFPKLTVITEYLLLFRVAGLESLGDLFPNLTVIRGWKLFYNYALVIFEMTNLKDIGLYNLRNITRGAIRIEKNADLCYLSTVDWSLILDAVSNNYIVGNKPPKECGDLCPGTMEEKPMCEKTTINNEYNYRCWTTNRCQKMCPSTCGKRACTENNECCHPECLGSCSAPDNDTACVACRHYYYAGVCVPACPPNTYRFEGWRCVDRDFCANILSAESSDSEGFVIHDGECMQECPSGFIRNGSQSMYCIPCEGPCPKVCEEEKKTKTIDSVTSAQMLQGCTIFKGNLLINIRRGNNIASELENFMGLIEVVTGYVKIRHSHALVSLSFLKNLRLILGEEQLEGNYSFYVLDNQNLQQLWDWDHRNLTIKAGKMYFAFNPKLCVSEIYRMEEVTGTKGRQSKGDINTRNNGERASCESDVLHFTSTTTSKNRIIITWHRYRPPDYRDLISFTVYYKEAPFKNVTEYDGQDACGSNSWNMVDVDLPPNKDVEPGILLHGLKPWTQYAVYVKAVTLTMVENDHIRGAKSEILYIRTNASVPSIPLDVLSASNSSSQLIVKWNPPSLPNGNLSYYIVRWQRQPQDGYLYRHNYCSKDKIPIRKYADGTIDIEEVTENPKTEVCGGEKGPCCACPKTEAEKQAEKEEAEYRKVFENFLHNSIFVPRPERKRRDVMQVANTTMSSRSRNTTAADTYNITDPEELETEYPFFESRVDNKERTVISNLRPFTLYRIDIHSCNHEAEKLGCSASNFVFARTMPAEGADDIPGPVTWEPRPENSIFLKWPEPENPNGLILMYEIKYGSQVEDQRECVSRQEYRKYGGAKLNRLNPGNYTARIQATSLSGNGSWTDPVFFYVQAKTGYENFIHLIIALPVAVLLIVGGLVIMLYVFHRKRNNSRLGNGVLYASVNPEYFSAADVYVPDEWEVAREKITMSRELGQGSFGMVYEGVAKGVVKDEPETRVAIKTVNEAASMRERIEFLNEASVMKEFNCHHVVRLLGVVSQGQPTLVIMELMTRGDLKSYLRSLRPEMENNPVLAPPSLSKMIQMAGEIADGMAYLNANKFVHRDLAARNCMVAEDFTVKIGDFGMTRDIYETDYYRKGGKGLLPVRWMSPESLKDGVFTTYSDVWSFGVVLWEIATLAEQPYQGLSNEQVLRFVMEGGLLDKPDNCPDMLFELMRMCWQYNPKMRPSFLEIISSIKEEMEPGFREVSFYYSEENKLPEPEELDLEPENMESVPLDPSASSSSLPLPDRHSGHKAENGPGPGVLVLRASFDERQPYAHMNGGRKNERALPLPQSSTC
Chain of UniProt P68400 (whole entry, looked up): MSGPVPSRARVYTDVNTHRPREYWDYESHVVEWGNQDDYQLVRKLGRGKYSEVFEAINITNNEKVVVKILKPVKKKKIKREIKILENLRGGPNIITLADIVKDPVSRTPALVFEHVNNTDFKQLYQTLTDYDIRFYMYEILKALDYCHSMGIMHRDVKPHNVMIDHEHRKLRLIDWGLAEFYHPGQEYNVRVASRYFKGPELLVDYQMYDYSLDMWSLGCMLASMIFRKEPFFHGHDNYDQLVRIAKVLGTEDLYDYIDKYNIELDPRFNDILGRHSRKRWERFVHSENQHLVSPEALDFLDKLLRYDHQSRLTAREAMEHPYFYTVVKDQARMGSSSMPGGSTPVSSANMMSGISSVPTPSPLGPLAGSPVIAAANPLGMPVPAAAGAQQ
Chain of UniProt P11309 (whole entry, looked up): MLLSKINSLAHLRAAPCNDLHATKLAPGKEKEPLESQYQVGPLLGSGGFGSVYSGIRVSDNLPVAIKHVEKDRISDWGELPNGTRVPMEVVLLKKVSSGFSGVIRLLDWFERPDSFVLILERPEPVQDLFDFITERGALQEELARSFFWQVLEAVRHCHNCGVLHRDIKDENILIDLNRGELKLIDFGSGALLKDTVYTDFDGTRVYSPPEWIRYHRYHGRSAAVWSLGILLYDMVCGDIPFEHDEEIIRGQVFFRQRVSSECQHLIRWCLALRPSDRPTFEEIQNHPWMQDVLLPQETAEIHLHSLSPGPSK
Chain of UniProt O94768 (whole entry, looked up): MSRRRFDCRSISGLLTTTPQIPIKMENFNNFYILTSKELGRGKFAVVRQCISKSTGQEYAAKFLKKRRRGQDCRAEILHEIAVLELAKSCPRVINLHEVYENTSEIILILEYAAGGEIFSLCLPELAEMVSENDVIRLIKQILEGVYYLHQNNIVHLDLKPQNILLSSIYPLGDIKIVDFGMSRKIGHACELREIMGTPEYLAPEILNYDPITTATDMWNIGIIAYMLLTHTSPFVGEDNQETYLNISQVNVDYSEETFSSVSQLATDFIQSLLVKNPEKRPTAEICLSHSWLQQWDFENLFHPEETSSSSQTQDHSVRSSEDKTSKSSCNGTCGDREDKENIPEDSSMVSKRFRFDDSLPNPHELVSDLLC

Sample 1 — technique: protein binding microarray; form: double-stranded DNA, one strand shown; matrix: in vitro; tested at: not given; relative to: not given; direction: higher = stronger binding
Target: Histone acetyltransferase KAT6A, winged helix 1, GST fusion (KAT6A, Homo sapiens, UniProt Q92794, residues 1-85)
Notes: 8-mer, flanks averaged, mean of 2 arrays, mostly near background
Target sequence (chain): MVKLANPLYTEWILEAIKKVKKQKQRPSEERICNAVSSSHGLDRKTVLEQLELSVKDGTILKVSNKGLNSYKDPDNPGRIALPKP
| Oligonucleotide | E-score |
| --- | --- |
| ATAACCGA | -0.00718 |
| ACCAGGCG | -0.069 |
| GTTAGGGA | 0.00938 |
| ACTCCCAG | 0.0135 |
| GTAAGCCA | -0.14 |
| ACCATCAT | -0.265 |
| ACCACCCC | -0.0916 |
| GTCGTCGA | 0.0104 |

Sample 2 — observed: cell-free assay; technique: competition with immobilised ligand; tested at: 1 µM
SMILES: CS(=O)(=O)NCC[C@H](NC(=O)c1cncc2c1cnn2-c1ccc(F)cc1)c1ccnc(S(C)(=O)=O)c1
| target | remaining binding |
| --- | --- |
| IGF1R (Homo sapiens, UniProt P08069) | 100% |
| PRKACA (Homo sapiens, UniProt P17612) | 100% |
| PAK5 (Homo sapiens, UniProt Q9P286) | 99% |
| CSNK1G2 (Homo sapiens, UniProt P78368) | 89% |
| CSNK2A1 (Homo sapiens, UniProt P68400) | 100% |
| PRKACB (Homo sapiens, UniProt P22694) | 100% |
| PTK2B (Homo sapiens, UniProt Q14289) | 84% |
| RET (Homo sapiens, UniProt P07949, V804M) | 96% |
| CSNK1G1 (Homo sapiens, UniProt Q9HCP0) | 91% |
| PIM1 (Homo sapiens, UniProt P11309) | 96% |
| TEK (Homo sapiens, UniProt Q02763) | 84% |
| LATS1 (Homo sapiens, UniProt O95835) | 100% |
| EPHA2 (Homo sapiens, UniProt P29317) | 100% |
| STK17B (Homo sapiens, UniProt O94768) | 100% |
| CDC42BPA (Homo sapiens, UniProt Q5VT25) | 100% |
| CDK11B (Homo sapiens, UniProt P21127) | 100% |
| PRPF4B (Homo sapiens, UniProt Q13523) | 69% |

Sample 3 — technique: RNA Bind-n-Seq; form: RNA; matrix: in vitro; tested at: 1 µM; notes: whole 134-nt RNA, ends assumed; added: 150 mM KCl; relative to: input library; direction: higher = stronger binding
Target: Ras GTPase-activating protein-binding protein 1, C-terminal RGG region (G3BP1, Homo sapiens, UniProt Q13283)
Chain of UniProt Q13283 (whole entry, looked up): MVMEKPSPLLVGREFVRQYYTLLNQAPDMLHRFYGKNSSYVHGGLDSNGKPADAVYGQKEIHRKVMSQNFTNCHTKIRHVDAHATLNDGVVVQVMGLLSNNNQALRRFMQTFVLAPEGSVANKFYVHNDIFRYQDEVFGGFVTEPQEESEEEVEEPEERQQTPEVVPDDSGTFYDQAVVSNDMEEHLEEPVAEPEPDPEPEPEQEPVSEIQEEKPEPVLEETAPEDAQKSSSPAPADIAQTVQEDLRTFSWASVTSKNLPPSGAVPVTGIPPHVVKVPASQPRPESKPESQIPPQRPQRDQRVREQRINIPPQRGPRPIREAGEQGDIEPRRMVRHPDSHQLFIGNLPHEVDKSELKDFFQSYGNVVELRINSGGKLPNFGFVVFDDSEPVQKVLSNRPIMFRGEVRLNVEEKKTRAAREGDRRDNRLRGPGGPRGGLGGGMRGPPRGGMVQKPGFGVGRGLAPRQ
All sequences stand within: GGGAGUUCUACAGUCCGACGAUC … UGGAAUUCUCGGGUGUCAAGG
| Oligonucleotide | log2 enrichment |
| --- | --- |
| CUGUGCUACACAUCGUAUGUACCGAAUCGGGGAAAAAAAGGGGAAAGGGGAAAAAAAGGGGAAAGUAUUAUGUUACGCCGUUCGGAUCUG | -0.332 |
| CCUGUGCUACACAUCGUAUGUACCGAAUCGGGGUUUUUUUGGGGAAAAAAAGGGGAGGGGAAAGUAUUAUGUUACGCCGUUCGGAUCUGC | 0.267 |
| CUCAAGUCCUGUGCUACACAUCGUAUGUACCGAAUCGGAAAAAGGUGGUUUGGAAAGUAUUAUGUUACGCCGUUCGGAUCUGCACUUCCA | -1.18 |
| CUGUGCUACACAUCGUAUGUACCGAAUCGGGGAAAAAAGGGGAAAAAAGGGAAAAAAGGGGAAAGUAUUAUGUUACGCCGUUCGGAUCUG | -1.06 |
| CUCAAGUCCUGUGCUACACAUCGUAUGUACCGAAUCGGGUUGGUUGGGUUGGGAAAGUAUUAUGUUACGCCGUUCGGAUCUGCACUUCCA | 0.369 |
| CAAGUCCUGUGCUACACAUCGUAUGUACCGAAUCGGAAAAAGGAAAAAAAGGUGGAAAGUAUUAUGUUACGCCGUUCGGAUCUGCACUUC | -1.78 |
| CAAGUCCUGUGCUACACAUCGUAUGUACCGAAUCGGAAAAGGGAAAAGGGAAAAGGAAAGUAUUAUGUUACGCCGUUCGGAUCUGCACUU | -1.86 |
| UAGUGAAAUUUCUAAUAUAUAUAUUUUUUUCUUUAGGAGAAGAAACGAAUGCAUCAGAUCAACAGAAUGAACCCCAGUUAGGCCUGAAAG | -1.63 |

Sample 4 — technique: phase 2a trial
Structure (SMILES): CC(C)n1cnc(-c2ccc(F)cc2)c1-c1ncc(C(=O)Nc2ccc(N3CCN(C)CC3)cc2)[nH]1
| host | route | dose | notes | patients with TEAE [%] |
| --- | --- | --- | --- | --- |
| idiopathic pulmonary fibrosis patients | oral | dose not given | GLDH increased, grade 2, all arms | 1 |
| patients with idiopathic pulmonary fibrosis |  | 30 mg once daily | atopic dermatitis, grade 3 | 0 |
| idiopathic pulmonary fibrosis patients | oral | dose not given | ESR increased, grade 4, all arms | 0 |

Mixed results
| SMILES | host | matrix | tested at | time | measurement | value |
| --- | --- | --- | --- | --- | --- | --- |
| CCC(C(=O)N(C)C)N(c1ccc(C)c(C)c1)S(C)(=O)=O (stereo not shown) | human | microsomes or S9 | 2 µM | 0.5 h | remaining compound | 74.2% |

Excerpt of the above (sample 3):
| Oligonucleotide | log2 enrichment |
| --- | --- |
| CUCAAGUCCUGUGCUACACAUCGUAUGUACCGAAUCGGGUUGGUUGGGUUGGGAAAGUAUUAUGUUACGCCGUUCGGAUCUGCACUUCCA | 0.369 |
| CAAGUCCUGUGCUACACAUCGUAUGUACCGAAUCGGAAAAAGGAAAAAAAGGUGGAAAGUAUUAUGUUACGCCGUUCGGAUCUGCACUUC | -1.78 |
| CAAGUCCUGUGCUACACAUCGUAUGUACCGAAUCGGAAAAGGGAAAAGGGAAAAGGAAAGUAUUAUGUUACGCCGUUCGGAUCUGCACUU | -1.86 |
